Results collected from several papers.
Numbered parts are unrelated; each lists some results of a single study. Changes are numbered by the printed parent chain.

Sample 1 — technique: protein binding microarray; molecule type: double-stranded DNA, one strand shown; matrix: in vitro; concentration: not given; baseline: not given; reading: higher = stronger binding
Target: Histone acetyltransferase KAT6A, winged helix 1, GST fusion (KAT6A, Homo sapiens, UniProt Q92794, residues 1-85)
Setting: 8-mer, flanks averaged, mean of 2 arrays, mostly near background
Residues (chain): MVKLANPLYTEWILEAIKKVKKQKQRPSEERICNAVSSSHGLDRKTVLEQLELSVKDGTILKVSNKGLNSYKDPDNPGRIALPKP
`AGATGAAC` gave an E-score of -0.141.
`TCAATAAA` gave an E-score of -0.159.
`CACGTCTA` has an E-score of -0.235.
With `AGCAGTTC` the E-score was -0.228.
For `AGCGCTGA`, the E-score was 0.329.
`ACATACGC` gave an E-score of 0.237.
With `CTGCAGCA` the E-score was -0.169.
For `CCCATAGA`, the E-score was -0.338.
The E-score of `CTAAGCAA` is reported as -0.0795.
`CCTTACCA` gave an E-score of -0.1.
`CTATGGTC` gave an E-score of -0.126.
For `AGTTTTGG`, the E-score was -0.116.
The E-score of `AAAAAGCG` is reported as 0.192.
With `GTATTAGA` the E-score was -0.191.
The E-score of `CCAAAGGA` is reported as -0.295.
With `AGTAATGG` the E-score was -0.105.
With `TGAAACCA` the E-score was -0.0293.
`ACGACGTG` has an E-score of -0.0161.
`AGTAGCAG` has an E-score of -0.213.
For `GTTACCAA`, the E-score was 0.0196.

Sample 2 — technique: protein-binding microarray; molecule type: double-stranded DNA, one strand shown; matrix: in vitro; concentration: 0.8 µM; setting: whole 60-bp probe, no competitor; reading: higher = stronger binding; all sequences stand within: … GTCTTGATTCGCTTGACGCTGCTG
Target: Centromere-binding protein 1, full length, N-terminal tag (CBF1, Saccharomyces cerevisiae, UniProt P17106, residues 1-351)
Chain of UniProt P17106 (whole entry, looked up): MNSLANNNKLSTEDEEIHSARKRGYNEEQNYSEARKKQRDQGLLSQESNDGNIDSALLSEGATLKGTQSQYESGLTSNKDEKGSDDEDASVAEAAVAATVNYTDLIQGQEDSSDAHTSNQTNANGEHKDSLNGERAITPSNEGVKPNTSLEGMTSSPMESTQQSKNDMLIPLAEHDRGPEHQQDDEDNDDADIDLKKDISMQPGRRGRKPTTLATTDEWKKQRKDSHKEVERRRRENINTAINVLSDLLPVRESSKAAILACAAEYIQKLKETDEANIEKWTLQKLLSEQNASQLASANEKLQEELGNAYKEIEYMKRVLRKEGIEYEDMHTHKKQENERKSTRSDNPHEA
The fluorescence intensity of `CTACGGATTCCCGAGCACATGGAGTCGCTGAACTTC` is reported as 628 a.u.
`CTACTAGATTGCAGTCACCTTTTCAATTAATCATTC` has a fluorescence intensity of 569 a.u.
The fluorescence intensity of `CTAGCACCTATCCACGAGAGAAAGCAAGGAACATTC` is reported as 541 a.u.
`CTAGAAATGATTTAAAGTGATCACAGTGGCAATTTC` has a fluorescence intensity of 583 a.u.
The fluorescence intensity of `CCTAACTACTATAACCTGTGCATATAGCTTCGTACA` is reported as 493 a.u.
For `CTAACGTTACGGCACACCGTGATGTACCCGCATTTC`, the fluorescence intensity was 548 a.u.
With `TGTACGAAGCTATCACACGTATTTATAGTAGTTAGG` the fluorescence intensity was 564 a.u.
`GAAAGCCATGTTTGGCACGTTCCCTGCTTGAACTAG` gave a fluorescence intensity of 607 a.u.
`CTAGTGCCGCTTACTCGTGAGAATATCAACCTTTTC` has a fluorescence intensity of 563 a.u.
The fluorescence intensity of `CTATTGGCTTACGATCACGATGTCAATGATCATTTC` is reported as 899 a.u.
With `CTATTCGTCCCGTACCAACCACGTGTTTTCCACTTC` the fluorescence intensity was 7140 a.u.
`CTATATAGTTTCGGTCACGGTAGTCTCTAATTATTC` has a fluorescence intensity of 720 a.u.
With `GAACGTCCCTACATTGTGGTGATGGTGTATAACTAG` the fluorescence intensity was 520 a.u.
`CTAATGAAAGTTGTGCGTGTGTTGGTTACTTAGTTC` has a fluorescence intensity of 578 a.u.
With `CTAATATAACATTAACATGTGCATGTACACACGTTC` the fluorescence intensity was 725 a.u.
With `CTACTTTTTTTCAAATGTGTGACACACCCATACTTC` the fluorescence intensity was 614 a.u.
The fluorescence intensity of `CTATGCATACTTCATCTGACCAATATATTTTCATTC` is reported as 601 a.u.
With `CTACCTAAAAATTCTCACGTTTTTCTGGCCAGATTC` the fluorescence intensity was 641 a.u.
For `GAAATAGCTTCCGTGCACGTTCCAGTCTTCCCTTAG`, the fluorescence intensity was 627 a.u.
For `CCTAACTACTATATTCACATGGCATAGCTTCGTACA`, the fluorescence intensity was 607 a.u.
The fluorescence intensity of `TGTACGAAGCTATCCTCCGTGACTATAGTAGTTAGG` is reported as 546 a.u.
`GAAACTGAACTCAATGTGATGACCTGAAGCCACTAG` has a fluorescence intensity of 519 a.u.

Sample 3 — technique: DHFR PCA, deep sequencing; matrix: yeast; added: (+)-ABA 710 µM; baseline: wild-type fitted maximum; reading: higher = stronger binding
Target: ABI1, truncated, D143A, DHFR fusion (Arabidopsis thaliana)
Setting: methotrexate growth selection, single substitutions
Starting sequence: PYL1, truncated, DHFR fusion (Arabidopsis thaliana); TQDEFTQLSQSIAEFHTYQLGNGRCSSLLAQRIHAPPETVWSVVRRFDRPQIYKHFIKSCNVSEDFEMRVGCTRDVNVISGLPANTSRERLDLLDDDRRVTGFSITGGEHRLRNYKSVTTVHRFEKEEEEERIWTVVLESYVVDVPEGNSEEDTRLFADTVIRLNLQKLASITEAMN; partner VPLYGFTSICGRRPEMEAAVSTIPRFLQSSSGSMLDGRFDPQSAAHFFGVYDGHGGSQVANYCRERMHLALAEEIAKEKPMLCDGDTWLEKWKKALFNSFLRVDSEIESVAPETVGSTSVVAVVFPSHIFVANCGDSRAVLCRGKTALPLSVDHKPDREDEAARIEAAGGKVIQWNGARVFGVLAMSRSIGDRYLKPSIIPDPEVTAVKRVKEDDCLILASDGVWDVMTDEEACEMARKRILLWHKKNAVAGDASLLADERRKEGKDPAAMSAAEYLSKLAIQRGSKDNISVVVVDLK
`N165W` — result for “relative binding score”: 19.4%.
`L93P`: “relative binding score” 9.76%.
`N149L` — result for “relative binding score”: 65%.
For `T135A`, “relative binding score” read 94%.
Under “relative binding score”, `L166C` is recorded as 41.8%.
Under “relative binding score”, `A175N` is recorded as 95.5%.
For `K54G`, “relative binding score” read -6.19%.
`V78R`: “relative binding score” 10.5%.
`D153S` — result for “relative binding score”: 74.4%.
Under “relative binding score”, `D75Q` is recorded as 93.4%.
Under “relative binding score”, `I52R` is recorded as 102%.
`R69F`: “relative binding score” 89.8%.
`T120V` — result for “relative binding score”: 13.6%.
For `T135E`, “relative binding score” read -5.03%.
`A30V`: “relative binding score” 101%.
`S26M` — result for “relative binding score”: 98.4%.
For `E64L`, “relative binding score” read 100%.
`C72N` — result for “relative binding score”: 94.9%.
`G23Y` — result for “relative binding score”: 93.7%.
For `T160F`, “relative binding score” read 103%.
Under “relative binding score”, `N77M` is recorded as 103%.
For `I105A`, “relative binding score” read 78.8%.
For `T39S`, “relative binding score” read 100%.

Sample 4 — technique: aptamer microarray, sandwich; molecule type: DNA with 2'F-ANA; matrix: in vitro; concentration: 200 nM; added: Cy3 exosite-II aptamer, 400 nM; reading: higher = stronger binding; strand: GGTTGGTGTGGTTGG
Target: Prothrombin, mature alpha-thrombin (F2, Homo sapiens, UniProt P00734)
Setting: whole 15-mer aptamer, many near background
Under “mean fluorescence intensity”, `2'F-ANA at 2 6 8 9 10 11 12 13 15` is recorded as 166 a.u.
`2'F-ANA at 1 2 3 6 7 8 10 11 12`: “mean fluorescence intensity” 92 a.u.
`2'F-ANA at 1 5 7 10 11 13`: “mean fluorescence intensity” 46.2 a.u.
Under “mean fluorescence intensity”, `2'F-ANA at 2 4 5 7 11 12 13 15` is recorded as 83.6 a.u.
`2'F-ANA at 3 4 5 6 9 10 12 13`: “mean fluorescence intensity” 48.6 a.u.
For `2'F-ANA at 1 4 7 8 13 14`, “mean fluorescence intensity” read 55.5 a.u.
`2'F-ANA at 1 2 3 6 7 9 10 11 12 13 14 15`: “mean fluorescence intensity” 58.4 a.u.
`2'F-ANA at 3 4 5 6 13 14 15`: “mean fluorescence intensity” 50.9 a.u.
`2'F-ANA at 2 3 5 6 9` — result for “mean fluorescence intensity”: 100 a.u.
`2'F-ANA at 3 4 8 9 10 13 15`: “mean fluorescence intensity” 241 a.u.
For `2'F-ANA at 1 4 5 8 11 13 15`, “mean fluorescence intensity” read 48.8 a.u.
`2'F-ANA at 3 5 9 10 11 15` — result for “mean fluorescence intensity”: 58.8 a.u.
`2'F-ANA at 1 3 5 7 8 9 12 13 14 15`: “mean fluorescence intensity” 47.9 a.u.
Under “mean fluorescence intensity”, `2'F-ANA at 4 5 7 8 11 13 14 15` is recorded as 56.9 a.u.
For `2'F-ANA at 1 2 3 5 6 9 10 12 13 15`, “mean fluorescence intensity” read 50.8 a.u.
For `2'F-ANA at 3 4 7 9 10 12 14`, “mean fluorescence intensity” read 249 a.u.
Under “mean fluorescence intensity”, `2'F-ANA at 1 3 4 8 9 10 13 14 15` is recorded as 75.6 a.u.
Under “mean fluorescence intensity”, `2'F-ANA at 2 4 8 11 12 13` is recorded as 464 a.u.
`2'F-ANA at 9 10 11 12 14 15`: “mean fluorescence intensity” 97.5 a.u.
Under “mean fluorescence intensity”, `2'F-ANA at 2 3 5 6 9 13 14` is recorded as 53.9 a.u.
Under “mean fluorescence intensity”, `2'F-ANA at 1 3 4 7 8 9 11 13 14 15` is recorded as 65.2 a.u.
`2'F-ANA at 2 4 5 6 7 9 10 11 13`: “mean fluorescence intensity” 102 a.u.
Under “mean fluorescence intensity”, `2'F-ANA at 4 8 10 13` is recorded as 66.4 a.u.
Under “mean fluorescence intensity”, `2'F-ANA at 2 3 4 5 6 8 10 13 14 15` is recorded as 52.8 a.u.
Under “mean fluorescence intensity”, `2'F-ANA at 1 3 4 6 10 11 13 14 15` is recorded as 53.2 a.u.

Sample 5 — target: CCNF, cyclin fold, Cln2 fusion (human); technique: yeast growth competition, sequencing; matrix: yeast; setting: strong parent motif; baseline: not given; reading: higher = stronger binding
Starting sequence: GMNC docking peptide (human); KNAKRNLSSEFAN
`KNAKRNYSSEFAN [L7Y]` — result for “normalised enrichment score”: 1.51.
Under “normalised enrichment score”, `KIAKRNLSSEFAN [N2I]` is recorded as 0.844.
For `KNDKRNLSSEFAN [A3D]`, “normalised enrichment score” read 0.161.
`KNAKLNLSSEFAN [R5L]` — result for “normalised enrichment score”: 0.505.
`KNAKRNLSSECAN [F11C]` — result for “normalised enrichment score”: 0.469.
`KNACRNLSSEFAN [K4C]`: “normalised enrichment score” 1.28.
Under “normalised enrichment score”, `KNAKRNLSQEFAN [S9Q]` is recorded as 0.633.
For `KNCKRNLSSEFAN [A3C]`, “normalised enrichment score” read 0.937.
`KNAKRVLSSEFAN [N6V]` — result for “normalised enrichment score”: 0.244.
Under “normalised enrichment score”, `KNAIRNLSSEFAN [K4I]` is recorded as 0.635.
`KNAKRNLSSEFMN [A12M]` — result for “normalised enrichment score”: 0.62.
`KNAKPNLSSEFAN [R5P]`: “normalised enrichment score” 0.12.
Under “normalised enrichment score”, `KNAKRNLSSEFVN [A12V]` is recorded as 0.374.
`KNAKRNLSKEFAN [S9K]`: “normalised enrichment score” 0.905.
`KNAKRYLSSEFAN [N6Y]`: “normalised enrichment score” -0.204.
For `KNAKFNLSSEFAN [R5F]`, “normalised enrichment score” read -0.000659.
For `KNAKRTLSSEFAN [N6T]`, “normalised enrichment score” read 0.432.
Under “normalised enrichment score”, `KNAKRNPSSEFAN [L7P]` is recorded as 0.599.
Under “normalised enrichment score”, `KNAKRNLSIEFAN [S9I]` is recorded as 1.49.
`KNAKCNLSSEFAN [R5C]` — result for “normalised enrichment score”: 0.0115.
For `KNANRNLSSEFAN [K4N]`, “normalised enrichment score” read 0.592.
`KNIKRNLSSEFAN [A3I]`: “normalised enrichment score” 1.15.
For `KNYKRNLSSEFAN [A3Y]`, “normalised enrichment score” read 0.328.
`KNAKRNLYSEFAN [S8Y]`: “normalised enrichment score” 1.37.
Under “normalised enrichment score”, `KNFKRNLSSEFAN [A3F]` is recorded as 0.72.

A few entries again (sample 3):
Under “relative binding score”, `I52R` is recorded as 102%.
`R69F`: “relative binding score” 89.8%.
`T120V` — result for “relative binding score”: 13.6%.
For `T135E`, “relative binding score” read -5.03%.
`A30V`: “relative binding score” 101%.
`S26M` — result for “relative binding score”: 98.4%.
For `E64L`, “relative binding score” read 100%.
`C72N` — result for “relative binding score”: 94.9%.
`G23Y` — result for “relative binding score”: 93.7%.
